Results gathered from unrelated publications.
A part holds a random share of what one study measured. Positions count from the first letter of the parent shown.

Study 1
Target: ABI1, truncated, D143A, DHFR fusion (Arabidopsis thaliana)
Method: DHFR PCA, deep sequencing
Sample: yeast
Setting: methotrexate growth selection, single substitutions
With: (+)-ABA 0.0091 µM
Reference: wild-type fitted maximum
Reading: higher = stronger binding
Starting sequence: PYL1, truncated, DHFR fusion (Arabidopsis thaliana); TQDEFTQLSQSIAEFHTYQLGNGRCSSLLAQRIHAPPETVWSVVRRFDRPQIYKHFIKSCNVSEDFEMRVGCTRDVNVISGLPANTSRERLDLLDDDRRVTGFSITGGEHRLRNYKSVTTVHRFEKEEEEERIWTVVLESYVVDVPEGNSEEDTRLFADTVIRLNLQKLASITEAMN
Variant | relative binding score
S27R | 0.142%
R163M | 23.8%
V136F | 8.56%
T173E | 0.313%
N22M | 17.9%
D96H | 0.984%
Q51D | 30.4%
Y141F | -0.138%
L29V | 31.5%
D97M | 2.9%
R98F | -3.26%
T106H | 1.11%
Q167V | -0.337%
E152I | 4.67%
I57Y | -3.84%
A158G | -2.21%
R88Y | 14%
D153A | -3.14%
H110R | 20.9%

Study 2
Target: CCNB1, cyclin fold, Cln2 fusion (human)
Method: yeast growth competition, sequencing
Sample: yeast
Setting: weak parent motif
Reference: not given
Reading: higher = stronger binding
Starting sequence: BRCA2 docking peptide (human); CKKRRALDFLSRL
Variant | normalised enrichment score
CKKARALDFLSRL [R4A] | 0.268
CKARRALDFLSRL [K3A] | 0.618
CKKRRALDLLSRL [F9L] | 0.47
CKKRRALDFLARL [S11A] | 0.726
CKKRRAADFLSRL [L7A] | 0.659
CKKRRALAFLSRL [D8A] | 0.746
CKKRRALDFLSRA [L13A] | 0.975

Study 3
Target: PABPC1L2, full length, GST fusion (mouse, UniProt A0ABA7IW68)
Method: RNAcompete
Form: RNA
Sample: in vitro
Tested at: 20 nM
Setting: 7-mer, probes averaged, single round
Reference: mean of 7-mers
Reading: higher = stronger binding
Oligonucleotide | 7-mer Z-score
GAAGCAG | -0.0391
AUGAAGG | 0.122
GGGCAGC | 0.363
AAGAAUA | 0.378
GAGAAAC | 0.439
UUUGUGG | -0.394
CUCAUCU | -0.336
GCAUGUG | -0.0899
ACUACUU | -0.0808
UGCCGUG | -0.266
AAACGGC | 0.869
UGUCACC | -0.122
UCCGCCG | -0.507
UCGCGGU | -0.253
CCACGAA | -0.0518
CUGUUAU | -0.383
AAAUCGU | 0.615
UCAAACC | -0.262
ACGCAAA | 0.678
UUACAGA | 0.0587
GUCUCGC | -0.423
CUGAUAA | 0.363
AUACUGA | -0.117
AGACUAG | -0.128
UUCACUG | -0.26

Study 4
Target: RING finger protein unkempt homolog, zinc fingers 1-6, GST-SBP tag (UNK, Homo sapiens, UniProt Q9C0B0, residues 30-357)
UniProt Q9C0B0, sequence (30-357, looked up): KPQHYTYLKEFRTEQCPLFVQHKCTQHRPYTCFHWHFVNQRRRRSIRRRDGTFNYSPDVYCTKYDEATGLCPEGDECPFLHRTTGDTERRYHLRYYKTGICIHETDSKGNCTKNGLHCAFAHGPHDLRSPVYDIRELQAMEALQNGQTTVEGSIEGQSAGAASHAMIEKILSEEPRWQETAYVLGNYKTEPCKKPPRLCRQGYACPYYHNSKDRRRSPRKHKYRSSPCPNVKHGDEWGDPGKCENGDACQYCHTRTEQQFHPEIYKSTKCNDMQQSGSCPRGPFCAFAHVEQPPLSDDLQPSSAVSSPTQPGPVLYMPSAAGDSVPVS
Method: RNA Bind-n-Seq
Form: RNA
Sample: in vitro
Tested at: not given
Setting: RNA with constant flanks, ends assumed
Reference: input RNA pool
Reading: higher = stronger binding
Oligonucleotide | bound/input enrichment [ratio]
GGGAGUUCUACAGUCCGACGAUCUUUGAUUUCUUUUUCUUUUUUUCUCUUCUUGUUUUUGUUUUUCUUUUUUGUUUGUUUUUUCCGCAUGCAAAUAUGUUGGUACGUUAUGUCCUGGUUUAAAAGGAUUAAAAAUUUAAAAGUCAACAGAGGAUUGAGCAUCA | 0.574
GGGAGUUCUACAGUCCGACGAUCUCAAUUCUUCAAGAAAAAUUGCAAGAAAUCAGAAAGCAUUAUCUGUCUUUAAAAUCUGAAGCCGCUUCCAUUGAUAGGAGGAGAAAACGUUUAAAGAAGAAAGAGAGAGAAAGUGCUGCUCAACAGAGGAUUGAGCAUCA | 0.234
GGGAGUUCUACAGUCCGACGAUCUGUCGGGUGGCUUAUCUGUGGGUGCCAUGGGUGAUGAUGUUCAUUUUAAGCUUUUGCCUGCCGUACAAGCACAUAAUGCUACUGAACGUUUUUCCACUUGGAGACUGUGAGCUGGUUGCUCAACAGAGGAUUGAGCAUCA | 0.181
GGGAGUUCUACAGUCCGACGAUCCCAAGCACUGGAACACUUCCACCAUCUCUCUCUGCUUAUCAGCAUCCCACCACCUUCAGCAACCGAAACUUUGCUACCACUUCACCUUUGGUGCUUCAGGAUUCAACUUUUAACACUACACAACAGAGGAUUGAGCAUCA | 0.535
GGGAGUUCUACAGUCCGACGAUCGUGAAUCUUUAACAUUACCUGGUGUGUUCCCUAACAUUCAAACUGUGCAUUGGCCAUACCCUCCGGAGUGGUUUGAGUAGUACAGACCUCGAAGCCUUGCUGCUAACACUGAGGUAGCUCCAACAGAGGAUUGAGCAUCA | 0.197
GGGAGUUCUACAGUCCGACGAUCUGUGCUGAAUUACACCAAAAUGUAAAUGUGAAAAACAUAAUCAUUGCUUUAAUUGACAGAUCCGCUUUAUUUGCUCAUCGUGAAGAUGGACCCGGAAUUCCAGCUGAGAUUAAACUUUUUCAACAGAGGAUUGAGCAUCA | 0.126
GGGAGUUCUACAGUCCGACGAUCGACAACAAAAUUAUAGAAUGCAAAUUUGAGAACAAUAGCUGGGUCUUCAUGAGACAGAGGACCGACAAAAGUUUCCCAAAUGCCUACAACACAGCCAUGGCUGUGUGCAAUAGCAUCUCGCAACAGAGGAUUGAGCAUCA | 1.13
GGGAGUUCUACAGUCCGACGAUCGUCUGCAGUGAGUUCUGUCACUGCUGGAGAAAAGUGUGUUUUGACUUCUCAGAGAACGUCACCCGGGUCUGUCCAGCAGCACCCAAAGACUCAGUAGUGACAAGGCUGAGUUCUUGCAGGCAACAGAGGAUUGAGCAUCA | 0.165
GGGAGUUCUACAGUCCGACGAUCUCUGCCACCCAGCAGAAGAAAAACACCAAACUCUCUAGCAAAACGACUGCUAAGUUAUCCACCCGUGCUAAAAGAAUUCAGAAGGAGCUAGCAGAGAUAACCCUUGAUCCUCCUCCUAACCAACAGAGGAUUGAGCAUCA | 0.285
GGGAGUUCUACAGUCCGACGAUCGUGCAGCUAAGGAAACAGCAUGCAGUCAUGAUUGUUAGAUGAGAGACACUAAAGUACAGUCCGCUGCCAACAAGUAUUAAGGAUUACUCUGCAAAACUUCCCAGUUGCCAGCUGCCAGAGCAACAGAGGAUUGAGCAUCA | 0.371
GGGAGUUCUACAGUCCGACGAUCCACUCGAGCCAGCACCACCGUUCUCACGCCCUGAGCUGCAGACAGCUAGGCGGUUUUAUCCCGUUUGAACCAGGCUGCUGGAGCUUGCUCCCUCCCGCCCUCUCUCUUUUUUUUCCACGGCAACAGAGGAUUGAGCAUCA | 0.194

Study 5
Target: BIRC6 UBC core domain (UniProt Q9NR09)
UniProt Q9NR09, sequence (whole entry, looked up): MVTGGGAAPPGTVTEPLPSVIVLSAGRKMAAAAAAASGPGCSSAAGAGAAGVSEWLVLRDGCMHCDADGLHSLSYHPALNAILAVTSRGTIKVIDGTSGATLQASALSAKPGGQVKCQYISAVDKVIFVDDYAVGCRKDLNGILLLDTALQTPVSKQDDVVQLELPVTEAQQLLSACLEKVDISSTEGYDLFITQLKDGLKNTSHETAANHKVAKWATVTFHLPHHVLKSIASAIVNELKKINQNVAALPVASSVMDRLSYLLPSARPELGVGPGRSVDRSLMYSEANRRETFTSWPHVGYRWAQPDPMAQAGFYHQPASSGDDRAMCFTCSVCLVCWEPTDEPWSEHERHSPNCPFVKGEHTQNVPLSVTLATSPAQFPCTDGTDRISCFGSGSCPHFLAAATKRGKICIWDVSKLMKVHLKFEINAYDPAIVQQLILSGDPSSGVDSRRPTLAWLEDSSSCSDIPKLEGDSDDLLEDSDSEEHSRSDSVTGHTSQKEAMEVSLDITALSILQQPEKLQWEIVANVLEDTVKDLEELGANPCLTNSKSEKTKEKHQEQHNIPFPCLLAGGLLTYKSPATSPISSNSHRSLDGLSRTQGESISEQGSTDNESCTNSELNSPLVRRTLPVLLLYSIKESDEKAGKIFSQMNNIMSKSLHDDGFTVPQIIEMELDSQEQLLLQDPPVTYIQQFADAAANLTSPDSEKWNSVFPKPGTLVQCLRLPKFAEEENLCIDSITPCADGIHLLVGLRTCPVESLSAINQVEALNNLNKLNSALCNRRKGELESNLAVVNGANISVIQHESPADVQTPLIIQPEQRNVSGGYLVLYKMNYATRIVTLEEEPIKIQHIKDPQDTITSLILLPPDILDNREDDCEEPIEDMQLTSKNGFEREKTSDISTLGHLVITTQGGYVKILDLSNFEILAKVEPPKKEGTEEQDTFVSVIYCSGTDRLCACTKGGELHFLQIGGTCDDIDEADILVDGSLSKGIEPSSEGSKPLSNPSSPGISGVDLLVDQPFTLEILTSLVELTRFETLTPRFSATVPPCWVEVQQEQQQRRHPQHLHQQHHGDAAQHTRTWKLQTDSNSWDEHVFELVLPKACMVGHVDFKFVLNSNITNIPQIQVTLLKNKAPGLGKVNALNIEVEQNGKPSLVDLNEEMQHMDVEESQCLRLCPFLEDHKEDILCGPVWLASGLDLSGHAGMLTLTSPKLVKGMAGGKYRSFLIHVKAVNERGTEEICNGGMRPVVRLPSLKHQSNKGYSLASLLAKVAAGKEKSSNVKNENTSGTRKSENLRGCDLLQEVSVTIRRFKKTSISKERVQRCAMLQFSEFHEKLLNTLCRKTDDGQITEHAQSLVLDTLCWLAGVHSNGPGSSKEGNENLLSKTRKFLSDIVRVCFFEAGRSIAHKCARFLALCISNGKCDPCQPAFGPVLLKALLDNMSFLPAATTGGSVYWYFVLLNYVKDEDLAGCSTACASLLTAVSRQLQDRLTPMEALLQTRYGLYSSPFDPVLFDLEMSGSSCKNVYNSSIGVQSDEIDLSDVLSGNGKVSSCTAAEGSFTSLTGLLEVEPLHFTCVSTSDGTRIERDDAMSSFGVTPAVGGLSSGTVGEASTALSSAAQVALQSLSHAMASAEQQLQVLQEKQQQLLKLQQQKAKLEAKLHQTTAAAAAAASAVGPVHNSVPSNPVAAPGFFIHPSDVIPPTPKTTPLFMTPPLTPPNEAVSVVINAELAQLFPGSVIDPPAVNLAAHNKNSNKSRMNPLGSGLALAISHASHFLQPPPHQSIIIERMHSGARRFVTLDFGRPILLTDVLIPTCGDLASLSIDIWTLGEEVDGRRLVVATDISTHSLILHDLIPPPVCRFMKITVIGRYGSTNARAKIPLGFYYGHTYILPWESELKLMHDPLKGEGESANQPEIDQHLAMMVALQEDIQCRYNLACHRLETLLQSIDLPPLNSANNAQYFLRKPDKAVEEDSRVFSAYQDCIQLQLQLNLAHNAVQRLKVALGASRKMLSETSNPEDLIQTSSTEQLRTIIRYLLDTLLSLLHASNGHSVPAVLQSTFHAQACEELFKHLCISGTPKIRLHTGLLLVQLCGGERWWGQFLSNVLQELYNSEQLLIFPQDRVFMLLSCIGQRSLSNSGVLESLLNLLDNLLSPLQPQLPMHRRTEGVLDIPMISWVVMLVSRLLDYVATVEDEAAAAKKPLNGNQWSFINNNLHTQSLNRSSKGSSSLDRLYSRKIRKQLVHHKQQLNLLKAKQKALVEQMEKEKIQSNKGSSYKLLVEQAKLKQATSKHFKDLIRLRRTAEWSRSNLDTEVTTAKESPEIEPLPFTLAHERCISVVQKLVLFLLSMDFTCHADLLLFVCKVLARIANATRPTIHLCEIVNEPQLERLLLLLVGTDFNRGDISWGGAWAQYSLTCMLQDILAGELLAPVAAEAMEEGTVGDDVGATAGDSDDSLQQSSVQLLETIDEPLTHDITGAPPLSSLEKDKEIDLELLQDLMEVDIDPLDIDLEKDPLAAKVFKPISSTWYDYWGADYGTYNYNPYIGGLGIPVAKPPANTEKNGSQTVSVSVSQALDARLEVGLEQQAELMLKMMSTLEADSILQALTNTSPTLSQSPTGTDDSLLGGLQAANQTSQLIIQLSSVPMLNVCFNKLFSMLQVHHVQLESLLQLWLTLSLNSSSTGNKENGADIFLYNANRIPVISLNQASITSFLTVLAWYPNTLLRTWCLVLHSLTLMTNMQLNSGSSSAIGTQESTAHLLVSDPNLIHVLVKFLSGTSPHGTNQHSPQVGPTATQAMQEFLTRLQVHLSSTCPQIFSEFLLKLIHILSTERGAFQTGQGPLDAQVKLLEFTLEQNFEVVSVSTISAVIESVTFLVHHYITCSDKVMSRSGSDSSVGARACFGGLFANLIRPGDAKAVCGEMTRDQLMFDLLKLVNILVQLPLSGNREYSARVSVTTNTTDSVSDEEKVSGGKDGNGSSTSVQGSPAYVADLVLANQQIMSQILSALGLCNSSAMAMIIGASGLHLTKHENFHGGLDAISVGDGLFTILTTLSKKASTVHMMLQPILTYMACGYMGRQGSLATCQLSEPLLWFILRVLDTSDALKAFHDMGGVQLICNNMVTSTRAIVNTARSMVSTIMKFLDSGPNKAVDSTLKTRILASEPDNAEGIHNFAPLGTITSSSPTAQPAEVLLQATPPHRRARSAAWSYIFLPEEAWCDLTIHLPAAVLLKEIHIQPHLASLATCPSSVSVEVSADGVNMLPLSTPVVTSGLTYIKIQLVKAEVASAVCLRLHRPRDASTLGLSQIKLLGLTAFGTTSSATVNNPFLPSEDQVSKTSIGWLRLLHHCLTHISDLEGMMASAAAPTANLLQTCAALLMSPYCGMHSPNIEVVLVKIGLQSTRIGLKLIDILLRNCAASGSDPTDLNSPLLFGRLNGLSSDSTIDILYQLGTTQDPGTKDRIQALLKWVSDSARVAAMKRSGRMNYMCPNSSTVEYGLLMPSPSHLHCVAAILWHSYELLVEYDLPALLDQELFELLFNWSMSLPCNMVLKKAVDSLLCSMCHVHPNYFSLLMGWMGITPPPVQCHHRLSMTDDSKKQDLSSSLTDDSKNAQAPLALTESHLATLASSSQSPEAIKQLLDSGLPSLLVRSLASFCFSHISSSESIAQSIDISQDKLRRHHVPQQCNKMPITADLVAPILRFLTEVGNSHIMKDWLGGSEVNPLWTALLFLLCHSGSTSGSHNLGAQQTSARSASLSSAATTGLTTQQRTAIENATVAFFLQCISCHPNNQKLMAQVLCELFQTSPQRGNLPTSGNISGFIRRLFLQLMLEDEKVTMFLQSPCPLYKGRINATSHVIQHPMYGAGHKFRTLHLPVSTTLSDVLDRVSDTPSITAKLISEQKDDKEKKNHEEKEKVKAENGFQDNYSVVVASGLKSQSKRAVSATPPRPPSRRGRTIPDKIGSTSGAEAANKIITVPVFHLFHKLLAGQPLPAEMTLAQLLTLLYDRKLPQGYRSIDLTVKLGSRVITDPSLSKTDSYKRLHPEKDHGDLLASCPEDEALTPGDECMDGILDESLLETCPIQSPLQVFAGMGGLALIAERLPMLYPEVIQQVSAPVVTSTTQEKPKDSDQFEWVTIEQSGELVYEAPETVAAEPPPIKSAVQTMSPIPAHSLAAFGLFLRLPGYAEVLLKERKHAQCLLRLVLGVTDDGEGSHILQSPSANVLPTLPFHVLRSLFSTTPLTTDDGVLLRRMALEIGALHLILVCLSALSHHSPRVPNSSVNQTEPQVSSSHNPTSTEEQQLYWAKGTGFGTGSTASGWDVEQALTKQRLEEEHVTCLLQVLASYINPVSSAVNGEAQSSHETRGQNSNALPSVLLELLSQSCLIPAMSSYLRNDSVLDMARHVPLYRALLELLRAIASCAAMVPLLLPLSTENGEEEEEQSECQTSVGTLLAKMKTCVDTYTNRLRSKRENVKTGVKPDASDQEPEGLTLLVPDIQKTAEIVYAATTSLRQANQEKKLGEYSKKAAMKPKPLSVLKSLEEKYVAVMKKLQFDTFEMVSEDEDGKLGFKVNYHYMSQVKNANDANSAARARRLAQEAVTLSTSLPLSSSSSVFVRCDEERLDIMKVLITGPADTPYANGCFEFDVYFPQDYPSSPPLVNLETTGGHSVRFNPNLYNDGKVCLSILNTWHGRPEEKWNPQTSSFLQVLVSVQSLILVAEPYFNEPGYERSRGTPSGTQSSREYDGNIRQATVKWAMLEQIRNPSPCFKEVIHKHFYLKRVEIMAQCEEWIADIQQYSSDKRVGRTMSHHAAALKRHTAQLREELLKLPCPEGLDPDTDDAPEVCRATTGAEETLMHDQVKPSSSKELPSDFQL
Method: yeast two-hybrid
Sample: yeast
Setting: mostly zero background
Reference: not given
Reading: higher = stronger interaction
B1: RNF121 RING domain (UniProt Q9H920); chain MPTKHLSDSVCAVCGQQIFVDVSEEGIIENTYRLSCNHVFHEFCIRGWCIVGKKQTCPYCKEKVDLKRMFS
B2: SH3RF1 RING domain (UniProt Q7Z6J0); chain DESALLDLLECPVCLERLDASAKVLPCQHTFCKRCLLGIVGSRNELRCPECRTLVGSGVEEL
B3: RFWD3 RING domain (UniProt Q6PCD5); chain ASMDEEEGDTCTICLEQWTNAGDHRLSALRCGHLFGYRCISTWLKGQVRKCPQCNKKARHSDIVV
B4: MAP3K1 RING domain (UniProt Q13233); chain NSIKDEEEQMCPICLLGMLDEESLTVCEDGCRNKLHHHCMSIWAEECRRNREPLICPLCRSKWRSHDFYS
B5: DZIP3 RING domain (UniProt Q86Y13); chain PDEEEEEEEPCVICHENLSPENLSVLPCAHKFHAQCIRPWLMQQGTCPTCRLHVLLPEEFP
B6: RNF19A RING domain (UniProt Q9NV58); chain ISKQIGDFIECPLCLLRHSKDRFPDIMTCHHRSCVDCLRQYLRIEISESRVNISCPECTERFNPHDIR
Sequence | lacZ reporter activity
B1 (RNF121 RING domain) | 0
B2 (SH3RF1 RING domain) | 0
NLSELTPYILCSICKGYLIDATTITECLHTFCKSCIVRHFYYSNRCPKCNIVVHQTQPLY (PCGF6 RING domain (UniProt Q9BYE7)) | 0
PEDRESLKSACVVCLSSFKSCVFLECGHVCSCTECYRALPEPKKCPICRQAITRVIPLY (MUL1 RING domain (UniProt Q969V5)) | 0
B3 (RFWD3 RING domain) | 0
YQNEVDDDLVCHICLQPLLQPLDTPCGHTFCYKCLRNFLQEKDFCPLDRKRLHFKLCKK (LNX2 RING domain (UniProt Q8N448)) | 0
B4 (MAP3K1 RING domain) | 0
FDGDVDPDLKCALCHKVLEDPLTTPCGHVFCAGCVLPWVVQEGSCPARCRGRLSAKELN (PDZRN3 RING domain (UniProt Q9UPQ7)) | 0
B5 (DZIP3 RING domain) | 0
B6 (RNF19A RING domain) | 0
AVPSGLEENLCKICMDSPIDCVLLECGHMVTCTKCGKRMNECPICRQYVIRAVHVF (RFFL RING domain (UniProt Q8WZ73)) | 0

Repeated from above (study 3):
Oligonucleotide | 7-mer Z-score
CCACGAA | -0.0518
GUCUCGC | -0.423
UUUGUGG | -0.394
AAAUCGU | 0.615
AGACUAG | -0.128
CUCAUCU | -0.336
UUACAGA | 0.0587
AUGAAGG | 0.122
AAGAAUA | 0.378
ACGCAAA | 0.678
UGUCACC | -0.122
GAGAAAC | 0.439
